Experimental data from different studies.
Protocols differ between the studies behind these lines. ± marks the error that the study gave.
GSTO1: Glutathione S-transferase omega-1 (GSTO1, Homo sapiens, UniProt P78417)
Chain of UniProt P78417 (whole entry, looked up): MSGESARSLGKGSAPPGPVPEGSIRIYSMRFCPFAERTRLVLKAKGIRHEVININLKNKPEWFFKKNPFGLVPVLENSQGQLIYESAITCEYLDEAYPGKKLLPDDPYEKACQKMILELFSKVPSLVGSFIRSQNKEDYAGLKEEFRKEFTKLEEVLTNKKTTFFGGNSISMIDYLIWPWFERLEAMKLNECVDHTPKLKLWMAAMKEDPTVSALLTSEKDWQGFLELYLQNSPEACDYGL
AGER: Advanced glycosylation end product-specific receptor (AGER, Homo sapiens, UniProt Q15109)
Chain of UniProt Q15109 (whole entry, looked up): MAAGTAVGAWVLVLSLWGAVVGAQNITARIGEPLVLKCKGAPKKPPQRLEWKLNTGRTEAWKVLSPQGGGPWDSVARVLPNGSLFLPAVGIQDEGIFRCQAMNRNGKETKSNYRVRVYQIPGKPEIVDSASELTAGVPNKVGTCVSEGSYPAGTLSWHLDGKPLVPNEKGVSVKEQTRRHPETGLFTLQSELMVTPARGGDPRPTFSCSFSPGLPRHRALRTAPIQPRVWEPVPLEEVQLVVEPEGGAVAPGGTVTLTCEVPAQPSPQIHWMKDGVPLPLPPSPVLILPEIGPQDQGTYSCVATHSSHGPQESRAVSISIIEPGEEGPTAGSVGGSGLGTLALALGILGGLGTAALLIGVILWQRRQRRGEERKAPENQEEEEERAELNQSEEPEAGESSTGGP
Succinate dehydrogenase complex: Succinate dehydrogenase complex (Sus scrofa, UniProt A5GZW8+D0VWV4+Q007T0+Q0QF01)
Chain of UniProt A5GZW8 (whole entry, looked up): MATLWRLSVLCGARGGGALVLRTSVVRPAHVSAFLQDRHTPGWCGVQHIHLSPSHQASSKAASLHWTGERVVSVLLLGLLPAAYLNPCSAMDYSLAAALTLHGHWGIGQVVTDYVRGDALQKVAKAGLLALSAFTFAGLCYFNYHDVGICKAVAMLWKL
Chain of UniProt D0VWV4 (whole entry, looked up): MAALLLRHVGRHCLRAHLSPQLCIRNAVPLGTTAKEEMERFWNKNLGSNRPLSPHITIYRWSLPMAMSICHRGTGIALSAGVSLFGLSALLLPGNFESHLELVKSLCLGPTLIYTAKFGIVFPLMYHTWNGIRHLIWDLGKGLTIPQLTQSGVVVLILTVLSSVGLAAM
Chain of UniProt Q007T0 (whole entry, looked up): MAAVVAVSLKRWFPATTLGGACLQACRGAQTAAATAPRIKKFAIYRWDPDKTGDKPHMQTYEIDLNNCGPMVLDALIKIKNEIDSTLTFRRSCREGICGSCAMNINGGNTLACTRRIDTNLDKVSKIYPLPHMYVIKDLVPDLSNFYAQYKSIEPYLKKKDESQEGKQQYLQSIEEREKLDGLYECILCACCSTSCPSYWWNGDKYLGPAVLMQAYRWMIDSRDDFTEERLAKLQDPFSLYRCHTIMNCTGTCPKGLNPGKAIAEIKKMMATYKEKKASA
Chain of UniProt Q0QF01 (whole entry, looked up): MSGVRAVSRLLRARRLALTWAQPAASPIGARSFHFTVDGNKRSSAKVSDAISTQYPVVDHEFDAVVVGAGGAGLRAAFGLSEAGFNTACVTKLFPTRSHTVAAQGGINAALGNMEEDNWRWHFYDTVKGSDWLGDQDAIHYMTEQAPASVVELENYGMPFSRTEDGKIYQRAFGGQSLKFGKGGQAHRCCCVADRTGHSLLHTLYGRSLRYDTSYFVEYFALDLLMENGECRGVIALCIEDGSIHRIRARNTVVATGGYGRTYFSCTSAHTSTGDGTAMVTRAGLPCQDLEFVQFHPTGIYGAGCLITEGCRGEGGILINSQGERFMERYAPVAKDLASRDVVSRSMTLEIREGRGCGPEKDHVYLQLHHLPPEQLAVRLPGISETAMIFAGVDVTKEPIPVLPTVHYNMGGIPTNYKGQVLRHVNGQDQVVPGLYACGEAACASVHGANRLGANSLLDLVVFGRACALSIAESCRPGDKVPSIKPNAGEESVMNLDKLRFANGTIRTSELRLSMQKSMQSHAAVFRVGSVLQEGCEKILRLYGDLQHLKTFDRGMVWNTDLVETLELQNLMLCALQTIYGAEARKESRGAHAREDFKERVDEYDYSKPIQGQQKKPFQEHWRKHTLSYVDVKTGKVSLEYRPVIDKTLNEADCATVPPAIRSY
Chain of UniProt P21396 (whole entry, looked up): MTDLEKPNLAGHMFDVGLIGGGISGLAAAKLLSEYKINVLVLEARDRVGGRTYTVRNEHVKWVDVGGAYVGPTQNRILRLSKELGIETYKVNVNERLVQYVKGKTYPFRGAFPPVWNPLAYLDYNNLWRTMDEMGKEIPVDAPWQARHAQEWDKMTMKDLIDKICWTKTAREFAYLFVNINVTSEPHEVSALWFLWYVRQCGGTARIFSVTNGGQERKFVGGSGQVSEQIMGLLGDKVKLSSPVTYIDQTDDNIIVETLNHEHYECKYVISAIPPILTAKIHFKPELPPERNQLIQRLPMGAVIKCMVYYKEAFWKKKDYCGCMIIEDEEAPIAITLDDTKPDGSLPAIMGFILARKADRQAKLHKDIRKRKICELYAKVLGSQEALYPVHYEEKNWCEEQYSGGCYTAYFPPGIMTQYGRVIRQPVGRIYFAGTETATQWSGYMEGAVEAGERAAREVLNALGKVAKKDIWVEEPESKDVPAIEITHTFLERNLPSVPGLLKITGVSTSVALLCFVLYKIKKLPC
Chain of UniProt P39045 (whole entry, looked up): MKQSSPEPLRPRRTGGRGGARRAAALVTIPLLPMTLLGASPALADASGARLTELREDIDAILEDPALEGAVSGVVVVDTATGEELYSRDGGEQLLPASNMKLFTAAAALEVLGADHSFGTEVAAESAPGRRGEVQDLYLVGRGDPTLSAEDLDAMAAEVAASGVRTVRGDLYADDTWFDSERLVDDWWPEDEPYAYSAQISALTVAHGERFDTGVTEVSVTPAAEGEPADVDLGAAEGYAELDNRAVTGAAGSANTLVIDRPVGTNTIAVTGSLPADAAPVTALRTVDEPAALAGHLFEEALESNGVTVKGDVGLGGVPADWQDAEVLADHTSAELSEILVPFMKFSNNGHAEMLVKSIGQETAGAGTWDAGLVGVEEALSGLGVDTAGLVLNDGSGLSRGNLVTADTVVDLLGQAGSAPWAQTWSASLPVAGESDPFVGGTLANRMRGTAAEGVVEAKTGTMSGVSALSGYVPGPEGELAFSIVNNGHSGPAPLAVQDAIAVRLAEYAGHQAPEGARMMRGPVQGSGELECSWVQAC
Chain of UniProt Q04760 (whole entry, looked up): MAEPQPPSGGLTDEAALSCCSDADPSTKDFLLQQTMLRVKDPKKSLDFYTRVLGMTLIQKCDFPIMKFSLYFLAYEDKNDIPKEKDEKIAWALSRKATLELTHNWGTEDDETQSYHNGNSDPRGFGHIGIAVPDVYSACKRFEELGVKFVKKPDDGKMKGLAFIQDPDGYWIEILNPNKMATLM
Chain of UniProt P14061 (whole entry, looked up): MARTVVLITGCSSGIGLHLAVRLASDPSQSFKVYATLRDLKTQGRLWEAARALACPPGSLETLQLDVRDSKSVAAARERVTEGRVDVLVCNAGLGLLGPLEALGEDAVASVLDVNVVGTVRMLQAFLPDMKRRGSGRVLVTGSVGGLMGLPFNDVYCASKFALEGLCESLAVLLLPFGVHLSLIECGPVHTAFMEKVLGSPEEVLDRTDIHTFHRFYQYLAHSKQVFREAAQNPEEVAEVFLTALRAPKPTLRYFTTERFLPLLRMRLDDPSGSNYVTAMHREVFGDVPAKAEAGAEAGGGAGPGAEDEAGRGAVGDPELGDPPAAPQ
Chain of UniProt P40261 (whole entry, looked up): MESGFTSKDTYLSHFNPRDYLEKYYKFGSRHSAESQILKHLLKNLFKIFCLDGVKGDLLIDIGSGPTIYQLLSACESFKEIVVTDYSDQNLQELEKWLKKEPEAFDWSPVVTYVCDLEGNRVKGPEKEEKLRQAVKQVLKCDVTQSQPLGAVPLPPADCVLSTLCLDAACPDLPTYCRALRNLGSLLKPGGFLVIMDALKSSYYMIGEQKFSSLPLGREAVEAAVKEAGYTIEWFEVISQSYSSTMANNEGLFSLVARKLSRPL
Chain of UniProt Q05097 (whole entry, looked up): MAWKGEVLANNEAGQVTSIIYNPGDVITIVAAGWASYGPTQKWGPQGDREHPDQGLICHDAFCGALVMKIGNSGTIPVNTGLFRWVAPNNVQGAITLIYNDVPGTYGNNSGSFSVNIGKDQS

| target | test | test system | conditions | inhibition | SMILES |
| --- | --- | --- | --- | --- | --- |
| Voltage-dependent L-type calcium channel subunit alpha-1F (Homo sapiens, UniProt O60840, T1007Y) | calcium current, whole-cell patch clamp | HEK-293T transfected | 5 µM | ~33% | CC(C)(C)CCN1C[C@@H]2[C@@H](CNC(=O)c3cc(Cl)cc(Cl)c3)[C@@H]2C1.Cl |
| GSTO1 | probe labelling, gel-based competitive ABPP | MDA-MB-435 soluble proteome | 100 nM, together with: SE-Rh probe | ≥ 98% | O=C(CCl)N(CCNC(=O)C(F)(F)F)c1ccc([N+](=O)[O-])cc1 |
| D-alanyl-D-alanine carboxypeptidase (Actinomadura sp. R39, UniProt P39045) | enzyme activity, inhibitor | – | concentration not given | no inhibition | CC1(C)SC(C(CCc2ccccc2)B(O)O)N[C@H]1C(=O)O (stereo partly shown) |
| AGER | binding to AGE-BSA, competitive ELISA | – | 100 µM, 60 min | 0% | COc1ccc(NC(=O)c2cc3ccccc3s2)cc1 |
| GSTO1 | probe labelling, gel-based competitive ABPP | MDA-MB-435 soluble proteome | 100 nM, together with: SE-Rh probe | ≥ 98% | C#Cc1cccc(N(C(=O)CCl)C(C(=O)NC2CCCCC2)c2ccccn2)c1 (racemic) |
| Receptor-type tyrosine-protein kinase FLT3 (FLT3, Homo sapiens, UniProt P36888, ITD) | enzyme activity, inhibitor, ADP detection | – | 0.1 µM | 87% | FC(F)(F)c1n[nH]cc1-c1nc2ccc3[nH]ncc3c2c2c1CCCCC2 |
| Lactoylglutathione lyase (GLO1, Homo sapiens, UniProt Q04760) | enzyme activity, inhibitor | – | 25 µM | 82.8% | Oc1ccc(/N=N/c2ccccc2)c2cccnc12 |
| Succinate dehydrogenase complex | enzyme activity, double-antibody sandwich ELISA | – | 1 µM | 14.4% | O=C(Nc1ccccc1Nc1ccccc1)c1nccnc1Cl |
| maltase, rat | enzyme activity, inhibitor | rat intestinal brush border vesicles | 10 µM | 91.4% | O=C(O[C@@H]1Cc2c(O)cc(O)cc2O[C@@H]1c1ccc(O)cc1)c1cc(O)c(O)c(O)c1 |
| Large neutral amino acids transporter small subunit 1 (SLC7A5, Homo sapiens, UniProt Q01650) | L-leucine uptake, inhibitor | S2 cells expressing LAT1 | 100 µM, together with: [3H]L-leucine 2 µM | inhibited | COc1cccc2c1C(=O)c1c(O)c3c(c(O)c1C2=O)CC(O)(C(=O)CO)CC3OC1CC(NC(=O)C[C@H](N)C(=O)O)C(O)C(C)O1 (stereo partly shown) |
| Nicotinamide N-methyltransferase (NNMT, Homo sapiens, UniProt P40261) | enzyme activity, inhibitor | – | 33 µM | < 20% | CC[C@H](C)[C@H](NC(=O)[C@H](CCCNC(=N)N)NC(=O)[C@H](CCCCN)NC(=O)[C@@H]1CCCN1C(=O)[C@@H]1CCCN1CCCN(CC[C@H](N)C(=O)O)C[C@H]1O[C@@H](n2cnc3c(N)ncnc32)[C@H](O)[C@@H]1O)C(=O)N[C@@H](C)C(N)=O |
| AGER | binding to AGE-BSA, competitive ELISA | – | 100 µM, 60 min | 0% | O=C(Nc1ccc(-c2ccccc2)cc1)c1cc2ccc(Cl)cc2s1 |
| PA-I galactophilic lectin (lecA, Pseudomonas aeruginosa, UniProt Q05097) | binding inhibitor, fluorescence polarization | – | 4000 µM, 4 mM catechol, together with: Cy5 galactoside tracer | 14 ± 5% | O=C(c1ccc(O)c(O)c1)c1ccc(O)cc1O |
| Succinate dehydrogenase complex | enzyme activity, double-antibody sandwich ELISA | – | 2 µM | 6.02% | O=C(Nc1ccccc1Nc1ccccc1)c1cccnc1F |
| Amine oxidase [flavin-containing] A (MAOA, Homo sapiens, UniProt P21397) | enzyme activity, inhibitor, luciferase | – | 1 µM | < 10% | C#CCSc1nc(Sc2nnnn2-c2ccccc2)c2nnn(Cc3ccccc3Cl)c2n1 |
| GSTO1 | probe labelling, gel-based competitive ABPP | MDA-MB-435 soluble proteome | 100 nM, together with: SE-Rh probe | 100% | O=C(NC1CCCCC1)C(c1ccccn1)N(C(=O)CCl)c1ccc(F)c(F)c1 (racemic) |
| 17-beta-hydroxysteroid dehydrogenase type 1 (HSD17B1, Homo sapiens, UniProt P14061) | – | – | 10 µM | inactive | O=C(CS(=O)(=O)Cc1ccco1)C12CC3CC(CC(C3)C1)C2 |
| Amine oxidase [flavin-containing] A (Maoa, Rattus norvegicus, UniProt P21396) | enzyme activity, inhibitor | – | 50 µg/mL, together with: serotonin substrate | 1.2 ± 2.6% | Oc1ccc(CCC(O)CC(O)CCc2ccc(O)cc2)cc1 (stereo not shown) |
| Serine/threonine-protein kinase mTOR (MTOR, Homo sapiens, UniProt P42345) | enzyme activity, inhibitor, TR-FRET | – | 3 nM | 41.1% | COC(=O)CCSc1nc2n(n1)C(c1cccc(OC)c1)C(C(=O)Nc1cncc(C)c1)=C(C)N2 (stereo not shown) |

Some of these lines once more:
| target | test | test system | conditions | inhibition | SMILES |
| --- | --- | --- | --- | --- | --- |
| Nicotinamide N-methyltransferase (NNMT, Homo sapiens, UniProt P40261) | enzyme activity, inhibitor | – | 33 µM | < 20% | CC[C@H](C)[C@H](NC(=O)[C@H](CCCNC(=N)N)NC(=O)[C@H](CCCCN)NC(=O)[C@@H]1CCCN1C(=O)[C@@H]1CCCN1CCCN(CC[C@H](N)C(=O)O)C[C@H]1O[C@@H](n2cnc3c(N)ncnc32)[C@H](O)[C@@H]1O)C(=O)N[C@@H](C)C(N)=O |
| AGER | binding to AGE-BSA, competitive ELISA | – | 100 µM, 60 min | 0% | O=C(Nc1ccc(-c2ccccc2)cc1)c1cc2ccc(Cl)cc2s1 |
| PA-I galactophilic lectin (lecA, Pseudomonas aeruginosa, UniProt Q05097) | binding inhibitor, fluorescence polarization | – | 4000 µM, 4 mM catechol, together with: Cy5 galactoside tracer | 14 ± 5% | O=C(c1ccc(O)c(O)c1)c1ccc(O)cc1O |
